{"data": "Measurements collected from several papers", "target": "Histone deacetylase 1 (HDAC1, Homo sapiens, UniProt Q13547)", "read-out": "enzyme activity", "action": "inhibitor", "UniProt Q13547, sequence (whole entry, looked up)": "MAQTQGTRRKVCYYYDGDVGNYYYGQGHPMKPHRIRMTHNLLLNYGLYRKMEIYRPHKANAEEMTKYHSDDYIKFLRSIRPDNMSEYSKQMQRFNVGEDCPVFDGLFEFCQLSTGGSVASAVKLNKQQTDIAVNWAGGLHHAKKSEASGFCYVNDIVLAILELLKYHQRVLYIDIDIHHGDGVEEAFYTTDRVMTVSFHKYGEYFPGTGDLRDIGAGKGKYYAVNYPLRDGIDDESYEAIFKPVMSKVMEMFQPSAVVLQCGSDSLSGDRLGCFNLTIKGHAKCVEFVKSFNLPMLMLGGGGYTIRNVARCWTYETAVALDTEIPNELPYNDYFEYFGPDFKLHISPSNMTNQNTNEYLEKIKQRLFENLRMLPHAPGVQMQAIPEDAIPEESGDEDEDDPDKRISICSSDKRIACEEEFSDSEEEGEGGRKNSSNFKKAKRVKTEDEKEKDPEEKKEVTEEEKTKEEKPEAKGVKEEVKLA"}
{"SMILES": "C[S@@](=N)(=O)c1ccc(C(=O)Nc2cc(-c3ccc(F)cc3)ccc2N)cc1", "test": "fluorescence", "IC50": "5 nM"}
{"SMILES": "O=C(NO)c1cncc(OS(=O)(=O)Oc2ccc(Oc3ccccc3)cc2)c1", "test": "fluorescence", "IC50": "6260 nM"}
{"SMILES": "COC(=O)CCCCCCC(=O)Nc1cccc(Nc2ncc(F)c(-c3cc(F)c4nc(C)n(C(C)C)c4c3)n2)c1", "IC50": "> 1000 nM"}
{"SMILES": "O=C(CCc1ccc(CNC(C(=O)O)C2CCCCC2)cn1)NO (stereo not drawn)", "IC50": "550 nM"}
{"SMILES": "Cc1nc2c(F)cc(-c3nc(Nc4ccc(CC(=O)NCCCCCCCC(=O)NO)cc4)ncc3F)cc2n1C(C)C", "IC50": "75 nM"}
{"SMILES": "C=CC[C@@H]1NC(=O)CCSCc2nc3ccccc3nc2CSC/C=C/CNC(=O)[C@H](CCCCCC(=O)N(O)CCCCCC)NC1=O", "test": "fluorescence", "IC50": "1100 nM"}
{"SMILES": "COC(=O)CCCCCCC(=O)Nc1ccc(Nc2ncc(F)c(-c3cc(F)c4nc(C)n(C(C)C)c4c3)n2)cn1", "IC50": "> 1000 nM"}
{"SMILES": "CC(C)c1ccc(OS(=O)(=O)Oc2cncc(C(=O)NO)c2)cc1", "test": "fluorescence", "IC50": "2060 nM"}
{"SMILES": "CC[C@H](C)[C@@H]1NC(=O)[C@H](Cc2ccccc2C(F)(F)F)NC(=O)CCSCc2cccc(n2)CSCCCNC(=O)[C@H](CCCCCC(=O)NO)NC1=O", "test": "fluorescence", "IC50": "11 nM"}
{"note": "Excerpt of the above:"}
{"SMILES": "C[S@@](=N)(=O)c1ccc(C(=O)Nc2cc(-c3ccc(F)cc3)ccc2N)cc1", "test": "fluorescence", "IC50": "5 nM"}
